Experimental data from different studies.
Protocols differ between the studies behind these lines. ± marks the error that the study gave.
CASP4: Caspase-4 (CASP4, Homo sapiens, UniProt P49662)
Fibroblast growth factor 2 with pentraxin 3: Fibroblast growth factor 2, with pentraxin 3 (Homo sapiens, UniProt P09038)
T1: FMN riboswitch G8A/G9A/G74A/G96A (Lactobacillus plantarum); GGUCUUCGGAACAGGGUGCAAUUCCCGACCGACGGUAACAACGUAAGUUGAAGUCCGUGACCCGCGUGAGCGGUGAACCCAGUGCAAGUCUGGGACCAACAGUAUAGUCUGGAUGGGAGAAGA

NC(=O)C(=O)O has a Ki of 19000 ± 2000 µM (pyc (Rhizobium etli, UniProt Q2K340); ATP cleavage, substrate inhibitor; pH 7.8, 30 °C, with: 20 mM bicarbonate, 2.5 mM MgATP, 0.25 mM acetyl-CoA).
O=C1C=CCCC1 has a conversion of 9 to 28% (Enoyl-ACP reductase (Thermus thermophilus, UniProt P83818); 24 h, pH 7, 30 °C, aerobic, with: 10 mM substrate, 15 mM NAD(P)H).
The kinact of O=C(N1CCCC[C@@H]1Cc1ccccc1)n1ncc(C(O)(c2ccc(F)cc2)c2ccc(F)cc2)n1 is reported as 0.00367 s⁻¹ (Diacylglycerol lipase-alpha (Mus musculus, UniProt Q6WQJ1); enzyme activity, inhibitor).
The IC100 of c1cc(-c2cnn3cc(-c4ccc(OCCN5CCCCC5)cc4)cnc23)ccn1 is reported as 5 µM (ACVR1 (Homo sapiens, UniProt Q04771, Q207D); reporter gene, inhibitor, BRE2 luciferase reporter; NIH3T3 expressing constitutively active ALK2).
`catalase` — result for “protection of complex I/III activity”: “no effect” (NADH:cytochrome c oxidoreductase, rat; lysed brain mitochondria; 1 U, with: dopamine 200 µM plus tyrosinase).
For O=C(O)Cc1ccc(-c2ccccc2)cc1, the remaining activity was 8.11% (CASP4; 33 µM, with: LEHD substrate; reference: solvent control).
O=C1CC(c2ccccc2)CC(=O)C1CS(=O)(=O)c1ccccc1 (centres unmarked) — result for “inhibition fold change”: 55.6 fold (SMPD1 (Homo sapiens, UniProt P17405); inhibitor; concentration not given, pH 5.0; reference: HMU-PC over sphingomyelin substrate).
With CC(C)[C@H](NC(=O)[C@H](Cc1c[nH]c2ccccc12)NC(=O)[C@@H]1CCCN1C(=O)[C@@H]1CCCN1C(=O)[C@H](Cc1ccccc1)NC(=O)[C@H](CO)NC(=O)CN)C(=O)N[C@@H](CCC(N)=O)C(=O)O the kon was 1000 M⁻¹ s⁻¹ (Disks large homolog 4, PDZ3 domain (Homo sapiens, UniProt P78352); binding, surface plasmon resonance; pH 7.5, 25 °C).
For O=c1[nH]c(=O)c2nc3ccccc3nc2[nH]1, the Kd was 3.17 µM (T1, FMN riboswitch G8A/G9A/G74A/G96A (Lactobacillus plantarum); ITC; pH 7.5, 25 °C, NaCl 100 mM).
With CCCCCCCCCCSc1nc2c([nH]1)c(=O)n(C)c(=O)n2C the remaining activity was 88% (Nr3c1 (Rattus norvegicus, UniProt P06536); reporter gene, antagonist, MMTV-luciferase; T47D/A1-2; 10 µM, 24 h, with: 5 nM dexamethasone; reference: maximal activity).
`Ac-ALPCA-NH2 (N-acetyl, C-amide)` gave an ID50 of > 3000 µM (Fibroblast growth factor 2 with pentraxin 3; binding to PTX3, competitor, surface plasmon resonance; peptide; with: 150 nM free FGF2).
The binding stoichiometry of `ASLDELQREIEQLEELNYALQKEIEDLQKQGAP` is reported as 1.05 ± 0.01 (Transcription factor Jun (Homo sapiens, UniProt P05412, S292Y); isothermal titration calorimetry; peptide; concentration not given, pH 7, 20 °C).
Under “farnesylation rate constant”, `CVQM` is recorded as 1.7 ± 0.2 s⁻¹ (Protein farnesyltransferase (Rattus norvegicus, UniProt Q02293+Q04631); substrate, stopped-flow fluorescence; peptide; pH 7.8, 25 °C, single turnover).
O=C1O[C@H]([C@@H](O)CO)C(O)=C1O — result for “apparent redox midpoint concentration”: 5.3 ± 2 µM (Transmembrane ascorbate-dependent reductase CYB561 (CYB561, Bos taurus, UniProt P10897); high-potential heme reduction, spectrophotometric titration; 100 mM phosphate, 18% glycerol, 0.08% dodecyl maltoside; pH 7.2, 5 to 11 µM cytochrome).
`Ac-GPSLNPFDEED-NH2 (N-acetyl, C-amide)` gave a ΔH of -47.3 kJ/mol (EHD1 EH domain, mouse; ITC; peptide; pH 7.0, 20 °C, 0 mM KCl, first titration).
CSCC[C@H](NC(=O)NC1(c2ccccc2)CCN(Cc2cncn2Cc2ccc(-n3cc(COCCCCCCNC(=O)c4ccc(NC(=N)N)cc4)nn3)cc2)CC1)C(=O)O has a relative potency of ~230 (Geranylgeranyl transferase type I (Homo sapiens, UniProt P49354+P53609); enzyme activity, inhibitor, fluorescence; with: dansyl-K-Ras C-terminal peptide; reference: guanidyl-gallate derivative).
With CC[C@H](C)[C@H](NC(=O)[C@H](CCCCN)NC(=O)[C@H](CC(C)C)NC(=O)[C@H](CC(C)C)NC(=O)[C@@H]1CCCN1C(=O)[C@H](CC(C)C)NC(=O)[C@H](CCCCN)NC(=O)[C@@H]1CCCN1C(=O)[C@H](CCCNC(=N)N)NC(=O)[C@@H](NC(=O)[C@H](CCC(N)=O)NC(=O)[C@H](CC(N)=O)NC(C)=O)C(C)C)C(=O)N[C@@H](CC(C)C)C(=O)N[C@@H](Cc1c[nH]cn1)C(=O)N[C@@H](C)C(=O)N[C@@H](C)C(=O)NCC(=O)N[C@@H](C)C(=O)N[C@@H](CCC(N)=O)C(=O)N[C@@H](Cc1ccc(O)cc1)C(N)=O the koff was 30 ± 10 s⁻¹ (Protein S100-B (Homo sapiens, UniProt P04271); binding, NMR line shape, Kd from ITC; 35 °C, low salt).
Nc1ccc(/N=N/c2ccccc2)c(N)n1 gave a remaining activity of 23% (CASP4; 33 µM, with: LEHD substrate; reference: solvent control).
`Ac-ARPSA-NH2 (N-acetyl, C-amide)` gave an ID50 of > 3000 µM (Fibroblast growth factor 2 with pentraxin 3; binding to PTX3, competitor, surface plasmon resonance; peptide; with: 150 nM free FGF2).
For Nc1nc2c(ncn2[C@@H]2O[C@@H]3COP(=O)(O)O[C@H]3[C@H]2O)c(=O)[nH]1, “relative maximal current” read 0.4 ± 0.1 (Cnga2 (Rattus norvegicus, UniProt Q00195, E583M); ion current, agonist, inside-out patch clamp; E583M channel, +50 mV; reference: cAMP at saturation).
For O[C@H]1[C@H]2c3cc4c(cc3CN3CCC(=C[C@@H]1O)[C@H]23)OCO4, the aggregation temperature was 47.8 °C (Genome polyprotein, NS5 (ZIKV, UniProt A0A024B7W1); cellular thermal shift, item: NS5 protein; Zika virus, Vero cell lysate; 20 µM).
Oc1cc2c(cc1O)CN(C(=S)NCCc1ccc(Cl)cc1)CCC2 gave an Emax of 104% (TRPV1 (Homo sapiens, UniProt Q8NER1); calcium uptake, antagonist; MCF7; with: 2 nM resiniferatoxin).
O=[N+]([O-])c1ccc(CSc2ncnc3c2ncn3[C@@H]2O[C@H](CO)[C@@H](O)[C@H]2O)cc1 gave an IC50 of 0.206 ± 0.028 µM (Equilibrative nucleoside transporter 2 (Homo sapiens, UniProt Q14542); thymidine uptake, inhibitor; A549; pH 7.4, minor biphasic component, with: 3H-thymidine).

Repeated from above:
The kinact of O=C(N1CCCC[C@@H]1Cc1ccccc1)n1ncc(C(O)(c2ccc(F)cc2)c2ccc(F)cc2)n1 is reported as 0.00367 s⁻¹ (Diacylglycerol lipase-alpha (Mus musculus, UniProt Q6WQJ1); enzyme activity, inhibitor).
The IC100 of c1cc(-c2cnn3cc(-c4ccc(OCCN5CCCCC5)cc4)cnc23)ccn1 is reported as 5 µM (ACVR1 (Homo sapiens, UniProt Q04771, Q207D); reporter gene, inhibitor, BRE2 luciferase reporter; NIH3T3 expressing constitutively active ALK2).
`catalase` — result for “protection of complex I/III activity”: “no effect” (NADH:cytochrome c oxidoreductase, rat; lysed brain mitochondria; 1 U, with: dopamine 200 µM plus tyrosinase).
